Measured values collected from several papers.
Each line is one published result; not all experiments were run side by side. Values joined by “and” are separate records of one study, mostly repeats; a detail may differ. ± marks the error that the study gave.
rep nsp14: Replicase polyprotein 1ab, nsp14 (rep, Severe acute respiratory syndrome coronavirus 2, UniProt P0DTD1)
Chain of UniProt Q02880 (whole entry, looked up): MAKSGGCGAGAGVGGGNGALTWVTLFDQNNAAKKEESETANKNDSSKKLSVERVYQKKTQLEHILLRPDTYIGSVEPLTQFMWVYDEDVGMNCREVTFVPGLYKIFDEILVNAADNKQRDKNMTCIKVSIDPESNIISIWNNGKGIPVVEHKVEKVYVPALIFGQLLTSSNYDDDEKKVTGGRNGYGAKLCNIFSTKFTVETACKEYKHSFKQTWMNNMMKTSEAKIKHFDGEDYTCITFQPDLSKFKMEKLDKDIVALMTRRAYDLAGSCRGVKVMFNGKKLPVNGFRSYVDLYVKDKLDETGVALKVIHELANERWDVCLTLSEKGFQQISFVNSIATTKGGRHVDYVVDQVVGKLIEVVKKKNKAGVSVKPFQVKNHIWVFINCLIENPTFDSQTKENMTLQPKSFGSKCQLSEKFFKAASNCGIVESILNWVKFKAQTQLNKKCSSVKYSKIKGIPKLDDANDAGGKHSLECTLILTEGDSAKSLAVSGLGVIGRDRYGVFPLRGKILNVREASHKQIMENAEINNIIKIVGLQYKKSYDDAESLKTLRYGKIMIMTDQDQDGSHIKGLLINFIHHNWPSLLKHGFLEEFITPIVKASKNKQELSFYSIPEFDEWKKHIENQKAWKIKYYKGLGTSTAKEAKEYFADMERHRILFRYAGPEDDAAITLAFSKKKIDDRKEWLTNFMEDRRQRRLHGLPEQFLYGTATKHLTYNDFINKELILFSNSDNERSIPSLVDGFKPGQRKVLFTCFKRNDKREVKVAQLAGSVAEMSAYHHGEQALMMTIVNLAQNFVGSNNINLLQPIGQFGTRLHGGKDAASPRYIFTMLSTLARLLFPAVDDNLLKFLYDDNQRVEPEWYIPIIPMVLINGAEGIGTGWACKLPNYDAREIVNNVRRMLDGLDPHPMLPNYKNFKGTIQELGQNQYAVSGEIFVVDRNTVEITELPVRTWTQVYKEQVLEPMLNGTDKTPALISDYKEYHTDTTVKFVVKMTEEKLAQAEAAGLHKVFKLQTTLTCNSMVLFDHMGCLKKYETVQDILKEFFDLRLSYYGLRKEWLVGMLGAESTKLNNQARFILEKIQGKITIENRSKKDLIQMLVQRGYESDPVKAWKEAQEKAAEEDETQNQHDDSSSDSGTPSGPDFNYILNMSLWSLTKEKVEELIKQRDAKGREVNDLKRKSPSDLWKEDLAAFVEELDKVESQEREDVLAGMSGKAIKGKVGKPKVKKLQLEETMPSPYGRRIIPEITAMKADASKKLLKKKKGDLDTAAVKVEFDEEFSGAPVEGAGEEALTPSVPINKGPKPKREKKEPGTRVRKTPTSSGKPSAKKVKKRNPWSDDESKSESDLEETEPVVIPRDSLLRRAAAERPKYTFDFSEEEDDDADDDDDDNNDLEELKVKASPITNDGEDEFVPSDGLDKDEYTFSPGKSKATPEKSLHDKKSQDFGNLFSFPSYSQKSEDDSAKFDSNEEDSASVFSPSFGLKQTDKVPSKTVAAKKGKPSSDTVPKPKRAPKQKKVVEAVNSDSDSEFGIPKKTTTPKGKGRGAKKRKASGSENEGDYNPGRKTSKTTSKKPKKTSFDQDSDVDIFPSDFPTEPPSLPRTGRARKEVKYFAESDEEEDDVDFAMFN

SMILES	tested on	test	test system	setting	scale	quantity	result
COC(=O)N(C)c1c(N)nc(-c2nn(Cc3ccccc3F)c3ncccc23)nc1N	THP-1	pyroptotic LDH release		2 µM, 40 min, added: LPS then nigericin		inhibition	25.7%
CO/N=C(\C(=O)N[C@@H]1C(=O)N2C(C(=O)O)=C(COC(C)=O)CS[C@H]12)c1csc(N)n1	Salmonella enterica serovar Enteritidis	broth microdilution	clinical isolate RKI-No 205/14			MIC	> 16 µg/mL
Clc1nc(NCc2ccco2)c2[nH]cnc2n1	B-lymphoblastoid cells from healthy donors	RT-PCR		concentration not given		GLA splicing	no effect
OC[C@H]1O[C@@H](O[C@@H]2[C@@H](O)[C@H](O[C@@H]3[C@@H](O)[C@H](O[C@@H]4[C@@H](O)[C@H](O[C@@H]5[C@@H](O)[C@H](O[C@H]6[C@H](O)[C@@H](CO)OC(O)[C@@H]6O)O[C@H](CO)[C@H]5O)O[C@H](CO)[C@H]4O)O[C@H](CO)[C@H]3O)O[C@H](CO)[C@H]2O)[C@H](O)[C@@H](O)[C@@H]1O (stereo partly shown)	Bacteroides thetaiotaomicron	binding, ITC		pH 7.0, 25 °C, middle domain		ΔG	-24.5 kcal/mol
[Ca+2]	uncharacterized protein (Bacteroides thetaiotaomicron, UniProt Q8A183)	phosphatase activity, activator, phosphate release		5 mM, EDTA-treated enzyme, added: substrate 4 mM	baseline: activity with Mg2+	relative specific activity	0.057
Fc1ccccc1Cc1nc(-c2nc(C(F)(F)F)n[nH]2)cn2ccnc12			healthy volunteers	20 mg, single ascending dose	baseline: placebo	choice reaction time	-12.3 ms
COC(=O)Nc1c(N)nc(-c2nn(Cc3ccccc3F)c3ncc(F)cc23)nc1N			healthy white men	dose not given, day 14, 336 h, LS mean difference, added: sildenafil 50 mg	baseline: placebo	seated SBP maximum decrease	-0.6 mmHg
CC(C)C[C@H](NC(=O)OCc1ccccc1)C(=O)N[C@H](C=O)C[C@@H]1CCCNC1=O	SARS-CoV-2	viral replication, RT-qPCR viral load	Vero	48 h		EC90	3.7 ± 0.8 µM
OC[C@H]1O[C@@H](O[C@@H]2[C@@H](O)[C@H](O[C@@H]3[C@@H](O)[C@H](O[C@H]4[C@H](O)[C@@H](CO)OC(O)[C@@H]4O)O[C@H](CO)[C@H]3O)O[C@H](CO)[C@H]2O)[C@H](O)[C@@H](O)[C@@H]1O (stereo partly shown)	Bacteroides thetaiotaomicron	binding, ITC		pH 7.0, 25 °C, middle domain		ΔH	-11.8 kcal/mol
CC1COc2ccccc2N1C(=O)C(Cl)Cl (stereo not shown)	glutathione S-transferase		female rhesus monkey liver cytosol	5 µM, 30 min, pH 7.4, added: GSH		remaining compound	29 ± 2%
C[C@H]1O[C@@H](O[C@H]2[C@@H](O)C[C@H](O[C@H]3[C@@H](O)C[C@H](O[C@H]4CC[C@@]5(C)[C@H](CC[C@@H]6[C@@H]5CC[C@]5(C)[C@@H](C7=CC(=O)OC7)CC[C@]65O)C4)O[C@@H]3C)O[C@@H]2C)C[C@H](O)[C@@H]1O	Nedd8-cullin1 interaction	neddylation, AlphaScreen		100 µM		inhibition	19.1%
COc1cc([C@@H]2c3cc4c(cc3[C@@H](O[C@@H]3O[C@@H]5CO[C@@H](C)O[C@H]5[C@H](O)[C@H]3O)[C@H]3COC(=O)[C@H]23)OCO4)cc(OC)c1O	TOP2B (Homo sapiens, UniProt Q02880)	decatenation		100 µM		mean decatenated DNA	89.8% and 91.5%
OC[C@H]1O[C@@H](O[C@@H]2[C@@H](O)[C@H](O[C@@H]3[C@@H](O)[C@H](O[C@@H]4[C@@H](O)[C@H](O[C@H]5[C@H](O)[C@@H](CO)OC(O)[C@@H]5O)O[C@H](CO)[C@H]4O)O[C@H](CO)[C@H]3O)O[C@H](CO)[C@H]2O)[C@H](O)[C@@H](O)[C@@H]1O (stereo partly shown)	Bacteroides thetaiotaomicron	binding, ITC		pH 7.0, 25 °C, distal domain		-TΔS	-6.67 kcal/mol
O=C(O)c1cccnc1Nc1cccc(C(F)(F)F)c1		vericiguat glucuronidation, inhibitor, refers to: metabolite M-1 formation	human kidney microsomes	5.0 µM	baseline: no inhibitor	remaining activity	15.1%
Cc1c(S(=O)(=O)N2CCc3c(cnn3C)C2)cc(C(=O)NCc2cccnc2N2CCCC2)n1C	rep nsp14	inhibitor				IC50	0.017 µM
OC[C@H]1O[C@@H](O[C@@H]2[C@@H](O)[C@H](O[C@H]3[C@H](O)[C@@H](CO)OC(O)[C@@H]3O)O[C@H](CO)[C@H]2O)[C@H](O)[C@@H](O)[C@@H]1O (stereo partly shown)	Bacteroides thetaiotaomicron	binding, ITC		pH 7.0, 25 °C, distal domain		ΔH	-10.1 kcal/mol
N#CCC1CCN(c2nc(Nc3ccc(N4CCC(O)CC4)cc3)c3c(=O)[nH]ncc3n2)CC1		vs placebo, Olink multiplex	human, serum	80 mg, day 15, unit not given	baseline: placebo	osteopontin level difference	-1.36
C[C@H]1O[C@@H](O[C@H]2[C@@H](O)C[C@H](O[C@H]3[C@@H](O)C[C@H](O[C@H]4CC[C@@]5(C)[C@H](CC[C@@H]6[C@@H]5CC[C@]5(C)[C@@H](C7=CC(=O)OC7)CC[C@]65O)C4)O[C@@H]3C)O[C@@H]2C)C[C@H](O)[C@@H]1O	MYBPC3 iPSC cardiomyocytes	plate-normalised		concentration not given, 24 h, hit retest		MyBP-C level	9.1%
COc1ccccc1CNC(=O)c1cc(S(=O)(=O)N2CCN(C(C)=O)CC2)c(C)n1C	rep nsp14	inhibitor				IC50	> 6.25 µM
